Published values collected from several papers.
Each numbered part is a random draw from the data of one study; scales do not carry over between parts.

Block 1 — technique: protein binding microarray; molecule type: double-stranded DNA, one strand shown; sample: in vitro; tested at: not given; reference: not given; reading: higher = stronger binding
Target: Histone acetyltransferase KAT6A, both winged helices, GST fusion (KAT6A, Homo sapiens, UniProt Q92794, residues 1-181)
Setting: 8-mer, flanks averaged, mean of 2 arrays, mostly near background
Construct (chain): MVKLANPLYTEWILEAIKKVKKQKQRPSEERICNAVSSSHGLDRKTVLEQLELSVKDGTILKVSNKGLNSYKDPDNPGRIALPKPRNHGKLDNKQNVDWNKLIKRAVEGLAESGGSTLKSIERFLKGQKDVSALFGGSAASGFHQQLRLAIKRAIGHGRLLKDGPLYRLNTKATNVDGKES
`CAGGAGCG` has an E-score of 0.207.
`TAGTAAAA` gave an E-score of 0.019.
`ACCCACTA` gave an E-score of -0.139.
For `ACCACCGT`, the E-score was 0.0587.
With `AAATTACC` the E-score was 0.00303.
`CCGTTTAG` has an E-score of 0.252.
With `GTGTGTCA` the E-score was 0.0632.
`CGTGCACG` has an E-score of 0.129.
With `CTTCACTC` the E-score was -0.155.
`CGATTACA` has an E-score of 0.0395.
With `AATTTATC` the E-score was 0.0584.
With `GCCTGTCA` the E-score was 0.0119.
With `GTGCCATA` the E-score was -0.0125.
With `GGTACGCA` the E-score was 0.0758.
`GCATGAGC` gave an E-score of 0.0372.
The E-score of `CAGTTGAA` is reported as -0.0609.
With `CTATGGAG` the E-score was -0.16.
`AAATCCGG` has an E-score of 0.0856.
`ACCGAAAA` has an E-score of -0.21.
`GATGCTTA` gave an E-score of 0.00878.
`GCTACGTA` gave an E-score of 0.0529.
With `AAACATTA` the E-score was 0.0947.
With `AATAACGG` the E-score was 0.219.
For `ACATCCGA`, the E-score was 0.125.
`ACAACATG` gave an E-score of -0.0171.

Block 2 — technique: RNA Bind-n-Seq; molecule type: RNA; sample: in vitro; tested at: not given; reference: input RNA pool; reading: higher = stronger binding
Target: RING finger protein unkempt homolog, zinc fingers 1-6, GST-SBP tag (UNK, Homo sapiens, UniProt Q9C0B0, residues 30-357)
Sequence of UniProt Q9C0B0 (30-357, looked up): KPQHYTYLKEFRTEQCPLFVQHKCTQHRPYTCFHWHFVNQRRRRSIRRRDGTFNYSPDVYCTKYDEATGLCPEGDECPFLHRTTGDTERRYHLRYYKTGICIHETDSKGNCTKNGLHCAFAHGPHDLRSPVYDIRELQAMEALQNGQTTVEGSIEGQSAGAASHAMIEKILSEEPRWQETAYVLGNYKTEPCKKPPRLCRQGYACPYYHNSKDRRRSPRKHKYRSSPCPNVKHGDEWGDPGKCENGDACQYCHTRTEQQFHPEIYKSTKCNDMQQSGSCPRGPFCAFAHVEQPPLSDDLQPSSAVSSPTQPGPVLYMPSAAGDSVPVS
Setting: RNA with constant flanks, human and mouse sites, ends assumed
With `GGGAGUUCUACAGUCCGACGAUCGGAUCACCAGGAGAUGAAUUUUGUAAGCAGCGCCUUCCUCAACUAAAUUCCAAGGAUAAUAAUUUUUUGACCUGUACAGAAGAAGAUGGGGUGCUGGUGUACCACCACGCCCAGGAUGUCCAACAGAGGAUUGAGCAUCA` the bound/input enrichment was 0.218 ratio.
`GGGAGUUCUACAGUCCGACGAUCCGGAAUACUCCUUAUAAAACCCUGGAACCUGUUAAACCCCCAACAGUUCCUAAUGACUAUAUGACCAGUCCUGCUAGGCUUGGAAGUCAGCAUAGUCCAGGCAGGACAGCAUCUUUAAAUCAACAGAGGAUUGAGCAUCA` has a bound/input enrichment of 0.23 ratio.
With `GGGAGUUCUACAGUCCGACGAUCAGUACACCUUAUCAAACCAACAACAGAGAUGCCUCCAUUGAAUCAUCAAACAGACACAAAACUGAGAAUGCCAGGGAACCAUGCAAGUAUAAGGACUGUGUGAAUGGCUUAAAUUUGUAUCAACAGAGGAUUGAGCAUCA` the bound/input enrichment was 0.231 ratio.
With `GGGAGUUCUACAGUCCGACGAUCAUCAAACAUUACUUCAGUAUAGUUCCAGGAAAUGUGAGUUCUUCUCCCAGAUCUUCUGAUUUAGUCAAAUUAGCCCAAGAGUGCUGUUACCAUAAUAACAGGGGCAUUGCAGCUCAUGGACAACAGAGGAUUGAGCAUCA` the bound/input enrichment was 1.06 ratio.
With `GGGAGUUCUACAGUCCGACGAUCCUGGAGCAGGGUGGCCGUGGCAGCGUCCUGCAGUUCAUGCCCUUCACCACCGUGUCGGAACUGGUGAAGGUGUCAGCCAUGUCCAGCCCCAAGGUGGUUCUGGCCAUCACGGACCUCAGCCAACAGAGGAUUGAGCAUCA` the bound/input enrichment was 0.0538 ratio.
`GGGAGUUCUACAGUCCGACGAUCAAGCGGGUAGAUUCGGAGUCAGACUCAGACUCUGAAGAUGAUAUAAAUUCAGUGAUGAAGUGUUUGCCGGAAAAUUCAGCCCCUUUGAUUGAAUUCGCAAAUGUUUCCCAGGGUAUUUUACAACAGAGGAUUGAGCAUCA` gave a bound/input enrichment of 0.206 ratio.
The bound/input enrichment of `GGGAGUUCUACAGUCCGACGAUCUGGGAUGCCUCCACAGAUGCACCUGAAAAGUCUUCUCUCUUUCACCAAGGAGGAAGAAGUAGUACUUUCCUGUCACAUAGCUUAAGUAACCAGGCCGGUGUUCACCAGUCUCUAGUAAGUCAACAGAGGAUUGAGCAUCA` is reported as 0.553 ratio.
The bound/input enrichment of `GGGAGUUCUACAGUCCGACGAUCAGAAGACGGAGACCAUAACAGGACAUUUGAUAUUGCCUAACUUCAUAUAAGACAGAUGGAUGAUCUGUGAACAUAAGUGUUUAUUAAAAAUGGCAAUUAAAUAUAAAUUACUUUUGUGGGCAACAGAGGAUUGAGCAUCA` is reported as 0.808 ratio.
With `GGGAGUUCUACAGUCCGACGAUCAUCACACGAGAACUGAGCAUUUCCAAACACUUGGCUCAAAACCUUAUUGAUGAUGGUCCUGUAAGACCUUCUGUAUGGAAAAAGCAUGGUGUUGUAAAUACACUUAGCUCCUCUCUUCCUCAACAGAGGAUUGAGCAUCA` the bound/input enrichment was 0.03 ratio.
For `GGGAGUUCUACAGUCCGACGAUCUUUUCACCCGAAUGUUUGCCGACCCUCACAGCAAGAGAGUUUUCAGUAUGUUUUUGGAGACCCUCGUGGAUUUUAUAAUCAUUCAUAAGGAUGACUUGCAAGACUGGCUCUUCGUCCUUCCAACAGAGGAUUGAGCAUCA`, the bound/input enrichment was 0.11 ratio.
The bound/input enrichment of `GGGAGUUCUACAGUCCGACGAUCACCUGAGAAUGAUGCUAAGAAAAUUGAAGCACUGCUAAACCUUCCUAGAAACCCUUCAGUAAUAGAUAAACAAGACAAGGACUGAAAGUGCUCUGAACUUGAAACUCACUGGAGAGCUGACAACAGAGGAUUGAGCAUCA` is reported as 0.511 ratio.

Block 3 — technique: aptamer microarray, sandwich; molecule type: DNA with 2'F-ANA; sample: in vitro; tested at: 200 nM; together with: Cy3 exosite-II aptamer, 400 nM; reading: higher = stronger binding; strand: GGTTGGTGTGGTTGG
Target: Prothrombin, mature alpha-thrombin (F2, Homo sapiens, UniProt P00734)
Setting: whole 15-mer aptamer, many near background
For `2'F-ANA at 3 4 5 6 7 8 9 10 12 13`, “mean fluorescence intensity” read 53.9 a.u.
`2'F-ANA at 1 2 3 5 8 10 13` — result for “mean fluorescence intensity”: 46.2 a.u.
`2'F-ANA at 3 4 5 6 7 9 10 11 13 14 15` — result for “mean fluorescence intensity”: 59.4 a.u.
`2'F-ANA at 1 4 5 8 9 10 11 12 13` — result for “mean fluorescence intensity”: 50 a.u.
For `2'F-ANA at 2 3 7 9 10 11 13 14`, “mean fluorescence intensity” read 338 a.u.
For `2'F-ANA at 1 3 6 9`, “mean fluorescence intensity” read 233 a.u.
`2'F-ANA at 1 4 6 10 12 13 15` — result for “mean fluorescence intensity”: 56.9 a.u.
For `2'F-ANA at 1 8 10 13`, “mean fluorescence intensity” read 54.1 a.u.
For `2'F-ANA at 1 4 7 8 9 10 12 13 14`, “mean fluorescence intensity” read 51.3 a.u.
`2'F-ANA at 2 3 9 11 15`: “mean fluorescence intensity” 709 a.u.
`2'F-ANA at 2 4 5 6 7 9 12 15`: “mean fluorescence intensity” 145 a.u.
`2'F-ANA at 1 2 3 4 5 8 9 11 13 15`: “mean fluorescence intensity” 47.1 a.u.
For `2'F-ANA at 4 7 8 9 13`, “mean fluorescence intensity” read 229 a.u.
`2'F-ANA at 2 6 9 10 11 12 13 15`: “mean fluorescence intensity” 112 a.u.
Under “mean fluorescence intensity”, `2'F-ANA at 1 2 4 6 7 14` is recorded as 52.5 a.u.
`2'F-ANA at 1 2 3 4 5 6 12 15`: “mean fluorescence intensity” 97.7 a.u.

Block 4 — technique: RNA Bind-n-Seq; molecule type: RNA; sample: in vitro; tested at: 365 nM; reference: no-protein control; reading: higher = stronger binding
Target: RNA binding protein fox-1 homolog 2, RRM domain, GST-SBP tag (RBFOX2, Homo sapiens, UniProt O43251-10, residues 100-194)
Setting: natural RNA segment, single round, ends assumed
Construct (chain): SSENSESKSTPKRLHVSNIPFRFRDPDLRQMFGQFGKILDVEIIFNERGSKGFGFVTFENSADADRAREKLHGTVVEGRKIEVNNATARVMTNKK
Under “RBNS enrichment (R)”, `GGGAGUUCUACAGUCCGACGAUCUGAUCAUGUACCUUUUCAAUAAGGGGAGAUAGUAUCUUUAAAGUCAAUGUCUAGCCAAGAGUUUAGUUAAUGAAGAAUUAAACUGCACUGUUGAUCGGUGCUUUCUGUAAUGGAAUUCUCGGGUGCCAA` is recorded as 0.386.
`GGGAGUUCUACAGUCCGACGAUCAUCCAGGUAGUUCCUGUCAUGUCCACACACACAUGGAUUGUAGUGAUCCAAUUGCCCCAGUCUCCCUGCAUUUGCUAUUAAGUGAAUAUGCUGAACUGUCAUAAAAUUUUUGGAAUUCUCGGGUGCCAA`: “RBNS enrichment (R)” 0.514.
`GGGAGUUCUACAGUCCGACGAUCUUGCUUCUGAGGCACUAUUUGCCCUAAAAUAUAAUGGGCUUUUGUUUUGAGACUGGGUUUCAUUCUGUAGCCCAGGCUAGCCCUGAACUUGUUACAGUGUCCUUUUUUUCUGGAAUUCUCGGGUGCCAA`: “RBNS enrichment (R)” 0.537.
`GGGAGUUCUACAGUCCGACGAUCCACCGAGUCACCUGGUGAGCCUCAGGCUGGCACACCGAAGUUGUGCCGUGCUUACGUUAUUUAUUAGCUGUAGCCAUUUCUGUCUUGGCUCUCACUUCCUCUGCCCUUCCUGGAAUUCUCGGGUGCCAA` — result for “RBNS enrichment (R)”: 0.419.
Under “RBNS enrichment (R)”, `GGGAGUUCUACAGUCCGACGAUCAGACUUGUUAAAUGGCUUUGACCAAAAUGCUGAUAAUGAUUGGGACAUGAAAUCCAGGCUGAGUUGGUCUCAGAUAGCGAUGAGGAACUUGUUUGGUACUGGAGUAAAGGUGGAAUUCUCGGGUGCCAA` is recorded as 0.732.
`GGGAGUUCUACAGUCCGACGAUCCCCAUCGCCACCACCUUUUCCCAGGUUUAUUGAGGUAUGAUUGACAUCCAGUAAAAUUCACCCUUUGGAAAUAUACAGCUCUGUGAAUUUUGACAAAUUUAGUGUCUUGUUGGAAUUCUCGGGUGCCAA`: “RBNS enrichment (R)” 0.563.
`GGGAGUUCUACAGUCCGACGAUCCGCCUGGCUAGCGCUGCCCCUGCUGCUGCUGCCGCGCCACCCUUGGGAACCACUUCCCGAGCUUAUGUGUAUAUAAAUAGUUAUUUAUUAACAUCAUUGGUCAUUUUUAAUGGAAUUCUCGGGUGCCAA`: “RBNS enrichment (R)” 0.268.
`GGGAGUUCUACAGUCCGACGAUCCAGGUCUGCAGGUCGGUUUGCUGCCUGCCCUCCUCCUCUCACCCGAUGUCCAGGUGGGAUUUUAAAGUCUGCAUUGGUUAUAAUAACAGUUAUCAGUAAUUCCUGCCCAGUGGAAUUCUCGGGUGCCAA` — result for “RBNS enrichment (R)”: 0.714.
`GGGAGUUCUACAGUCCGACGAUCUUUAUUCAGUAUUUCUCCAAGUUGCUAUCUACUCAGCCUUAUGAAUGCCCCUCGCUUUUCUAAGGCCAUGUGAAAAUCACGGCACUGCCCUUAGCCUUGUGUCAUCUGCUUGGAAUUCUCGGGUGCCAA` — result for “RBNS enrichment (R)”: 0.467.
`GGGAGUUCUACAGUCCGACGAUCAUCACGUGUGGCUCCAGCCCUUGUUUCUGCCAGUGUAGACACCUCUGUCUGCCCCACUGUCCUGGGGUCGCUCUUGGGAGGCACAGGCAUGGGUGUGUCUGGCCUCAUUCUGGAAUUCUCGGGUGCCAA` — result for “RBNS enrichment (R)”: 0.304.
`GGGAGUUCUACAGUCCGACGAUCACCUAAAUGAAUUUCAUGAUUAGAGGUGCUCCCACCUGCCAAAUAAUCCCGCCACAAAUAUGCAAAUAUUGCAAAAUCAAAAAUAAUUCUGAAAUUAUUCUGAAACACUUUGGAAUUCUCGGGUGCCAA` — result for “RBNS enrichment (R)”: 0.552.
`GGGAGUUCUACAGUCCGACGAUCCGCCUGACAUUUUACGGGAUCAAAGUGGGUCUGUGGCAUUGCUGCUUCGUGAAUGUGUGUGGACUCUAGUUUCCGCAAAACAACGCAACACAAAACCAAGCAAGCAAAACUGGAAUUCUCGGGUGCCAA`: “RBNS enrichment (R)” 0.3.

Excerpt of the above (block 1):
`GATGCTTA` gave an E-score of 0.00878.
`CCGTTTAG` has an E-score of 0.252.
With `GCCTGTCA` the E-score was 0.0119.
`ACAACATG` gave an E-score of -0.0171.
With `AAACATTA` the E-score was 0.0947.
